Measured values pooled from the literature.
Parts stem from different laboratories: compare values within a part only. Several values in a cell are separate wells, animals, samples, runs or records.
UniProt Q9BWU1, sequence (whole entry, looked up): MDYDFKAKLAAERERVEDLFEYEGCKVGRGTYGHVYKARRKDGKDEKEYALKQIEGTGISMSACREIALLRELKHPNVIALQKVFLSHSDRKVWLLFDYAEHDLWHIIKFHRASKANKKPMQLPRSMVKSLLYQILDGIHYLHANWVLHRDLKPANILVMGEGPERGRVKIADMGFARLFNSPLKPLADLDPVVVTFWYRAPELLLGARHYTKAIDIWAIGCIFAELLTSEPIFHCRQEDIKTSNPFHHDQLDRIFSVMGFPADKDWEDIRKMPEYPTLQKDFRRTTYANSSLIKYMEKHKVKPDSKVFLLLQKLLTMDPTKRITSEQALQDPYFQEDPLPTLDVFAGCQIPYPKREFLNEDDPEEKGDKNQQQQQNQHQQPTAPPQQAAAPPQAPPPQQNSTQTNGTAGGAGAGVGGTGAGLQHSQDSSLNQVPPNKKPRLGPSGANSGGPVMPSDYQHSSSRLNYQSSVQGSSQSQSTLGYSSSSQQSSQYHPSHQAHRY
UniProt Q9Y6R4, sequence (whole entry, looked up): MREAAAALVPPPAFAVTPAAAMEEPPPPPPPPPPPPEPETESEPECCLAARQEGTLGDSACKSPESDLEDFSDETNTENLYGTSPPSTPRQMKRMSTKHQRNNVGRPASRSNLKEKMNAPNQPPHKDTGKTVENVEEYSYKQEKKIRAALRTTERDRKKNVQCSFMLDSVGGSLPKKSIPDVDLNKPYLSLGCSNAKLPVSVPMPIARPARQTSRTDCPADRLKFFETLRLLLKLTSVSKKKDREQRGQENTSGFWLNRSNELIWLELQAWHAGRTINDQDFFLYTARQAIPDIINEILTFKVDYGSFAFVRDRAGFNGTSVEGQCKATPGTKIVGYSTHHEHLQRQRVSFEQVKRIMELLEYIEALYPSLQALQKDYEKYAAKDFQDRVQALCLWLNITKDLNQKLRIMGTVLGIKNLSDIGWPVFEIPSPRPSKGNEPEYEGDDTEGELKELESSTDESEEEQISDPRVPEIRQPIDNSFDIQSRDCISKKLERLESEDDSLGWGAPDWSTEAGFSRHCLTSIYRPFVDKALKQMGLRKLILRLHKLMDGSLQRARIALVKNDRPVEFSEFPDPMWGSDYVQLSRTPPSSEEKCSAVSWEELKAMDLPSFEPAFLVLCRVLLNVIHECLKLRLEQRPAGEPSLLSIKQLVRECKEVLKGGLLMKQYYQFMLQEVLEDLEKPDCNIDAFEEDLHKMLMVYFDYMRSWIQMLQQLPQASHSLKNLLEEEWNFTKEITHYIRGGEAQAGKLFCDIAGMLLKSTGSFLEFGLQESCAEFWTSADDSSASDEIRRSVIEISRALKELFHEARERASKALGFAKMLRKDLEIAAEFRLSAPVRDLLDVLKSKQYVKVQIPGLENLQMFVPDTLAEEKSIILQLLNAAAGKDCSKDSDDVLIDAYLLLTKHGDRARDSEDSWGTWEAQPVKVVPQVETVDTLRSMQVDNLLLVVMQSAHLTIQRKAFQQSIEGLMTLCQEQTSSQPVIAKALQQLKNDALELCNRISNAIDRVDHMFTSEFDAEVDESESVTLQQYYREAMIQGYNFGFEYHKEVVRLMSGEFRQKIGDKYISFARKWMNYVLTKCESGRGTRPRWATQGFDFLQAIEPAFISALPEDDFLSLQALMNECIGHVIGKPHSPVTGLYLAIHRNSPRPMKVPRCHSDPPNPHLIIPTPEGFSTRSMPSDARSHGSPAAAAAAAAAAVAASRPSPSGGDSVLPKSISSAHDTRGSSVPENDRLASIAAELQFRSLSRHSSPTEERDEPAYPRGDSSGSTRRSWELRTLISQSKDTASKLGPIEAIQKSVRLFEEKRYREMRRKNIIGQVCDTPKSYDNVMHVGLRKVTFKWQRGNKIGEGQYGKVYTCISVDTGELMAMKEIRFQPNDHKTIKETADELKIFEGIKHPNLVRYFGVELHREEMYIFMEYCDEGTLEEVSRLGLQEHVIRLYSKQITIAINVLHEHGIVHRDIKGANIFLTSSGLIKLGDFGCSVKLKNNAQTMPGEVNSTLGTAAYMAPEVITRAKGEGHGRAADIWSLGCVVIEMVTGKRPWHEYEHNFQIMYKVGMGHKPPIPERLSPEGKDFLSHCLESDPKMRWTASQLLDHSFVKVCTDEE
UniProt Q09013, sequence (whole entry, looked up): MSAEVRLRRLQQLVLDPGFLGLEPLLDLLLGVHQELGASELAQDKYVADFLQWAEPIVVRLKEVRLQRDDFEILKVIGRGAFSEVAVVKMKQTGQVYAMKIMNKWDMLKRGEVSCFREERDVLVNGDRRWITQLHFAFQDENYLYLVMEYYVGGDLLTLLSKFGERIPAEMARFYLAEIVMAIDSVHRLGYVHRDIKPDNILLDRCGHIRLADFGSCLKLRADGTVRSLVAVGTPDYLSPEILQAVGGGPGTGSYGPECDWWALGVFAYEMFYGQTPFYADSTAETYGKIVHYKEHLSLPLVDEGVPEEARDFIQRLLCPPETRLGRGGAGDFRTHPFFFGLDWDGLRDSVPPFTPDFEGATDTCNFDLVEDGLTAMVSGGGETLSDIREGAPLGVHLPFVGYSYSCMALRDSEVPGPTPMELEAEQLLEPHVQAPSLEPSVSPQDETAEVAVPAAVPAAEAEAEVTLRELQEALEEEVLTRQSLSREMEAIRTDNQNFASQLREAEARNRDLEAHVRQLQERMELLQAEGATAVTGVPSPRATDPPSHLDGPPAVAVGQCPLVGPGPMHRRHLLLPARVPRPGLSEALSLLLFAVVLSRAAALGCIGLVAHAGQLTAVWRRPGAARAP
UniProt P36894, sequence (whole entry, looked up): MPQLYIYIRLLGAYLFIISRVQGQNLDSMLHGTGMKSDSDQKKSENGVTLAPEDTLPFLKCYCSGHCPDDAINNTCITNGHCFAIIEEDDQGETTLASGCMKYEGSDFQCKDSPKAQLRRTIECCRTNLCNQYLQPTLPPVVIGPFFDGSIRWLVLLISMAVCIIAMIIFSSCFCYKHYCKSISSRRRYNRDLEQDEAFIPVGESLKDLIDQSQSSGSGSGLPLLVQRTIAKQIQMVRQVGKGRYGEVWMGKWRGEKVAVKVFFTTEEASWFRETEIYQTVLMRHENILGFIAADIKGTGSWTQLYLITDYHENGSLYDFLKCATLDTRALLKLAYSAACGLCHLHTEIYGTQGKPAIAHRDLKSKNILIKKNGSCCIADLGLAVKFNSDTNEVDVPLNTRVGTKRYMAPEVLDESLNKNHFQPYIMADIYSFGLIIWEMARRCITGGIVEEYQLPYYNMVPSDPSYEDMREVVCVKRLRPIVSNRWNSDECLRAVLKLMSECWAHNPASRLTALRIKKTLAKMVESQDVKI
UniProt Q96GD4, sequence (whole entry, looked up): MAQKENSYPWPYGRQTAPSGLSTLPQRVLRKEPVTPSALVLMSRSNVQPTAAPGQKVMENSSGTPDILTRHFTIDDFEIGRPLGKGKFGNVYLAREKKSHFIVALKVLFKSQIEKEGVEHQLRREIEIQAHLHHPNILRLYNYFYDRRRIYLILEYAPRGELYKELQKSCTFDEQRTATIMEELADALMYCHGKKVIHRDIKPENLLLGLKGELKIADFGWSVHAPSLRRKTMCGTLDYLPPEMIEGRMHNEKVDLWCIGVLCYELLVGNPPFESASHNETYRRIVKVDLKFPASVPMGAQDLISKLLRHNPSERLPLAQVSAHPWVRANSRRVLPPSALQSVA

Series 1
Target: Cyclic AMP-dependent transcription factor ATF-1, full length (ATF1, Homo sapiens, UniProt P18846, residues 1-271)
Technique: protein-binding microarray
Molecule type: hairpin DNA
Sample: in vitro
Concentration: not given
Setting: whole hairpin DNA, median over replicate spots
Reference: not given
Direction: higher = stronger binding
Residues (chain): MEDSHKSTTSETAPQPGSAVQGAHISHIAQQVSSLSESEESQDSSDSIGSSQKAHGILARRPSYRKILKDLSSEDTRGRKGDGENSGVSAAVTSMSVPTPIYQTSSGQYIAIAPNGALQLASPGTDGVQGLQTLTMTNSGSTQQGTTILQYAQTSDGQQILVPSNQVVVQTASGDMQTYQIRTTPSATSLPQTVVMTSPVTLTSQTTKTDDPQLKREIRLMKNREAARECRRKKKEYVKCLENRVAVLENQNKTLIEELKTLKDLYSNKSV
For `GAGGCCGGCTGACGCGAGCCTCCTGGCTCGCGTCAGCCGGCCTCACACTC (5mC at 15)`, the median fluorescence was 5880 a.u.
With `GAGGCCGCATGACGTCAGCCTCCTGGCTGACGTCATGCGGCCTCACACTC` the median fluorescence was 14000 a.u.
The median fluorescence of `GAGGCCGCCTGACGTCAGCCTCCTGGCTGACGTCAGGCGGCCTCACACTC` is reported as 9700 a.u.
For `GAGGCCGGCTGTCGTCAGCCTCCTGGCTGACGACAGCCGGCCTCACACTC`, the median fluorescence was 3980 a.u.
`GAGGCCCGATGACGTCAGCCTCCTGGCTGACGTCATCGGGCCTCACACTC (5mC at 37)` gave a median fluorescence of 13900 a.u.
`GAGGCCCGCTGACGTCAGCCTCCTGGCTGACGTCAGCGGGCCTCACACTC (5mC at 7)` gave a median fluorescence of 13400 a.u.
`GAGGCCCGATGACGTCAGCCTCCTGGCTGACGTCATCGGGCCTCACACTC (5mC at 7 37)` gave a median fluorescence of 14800 a.u.
`GAGGCCGGATGACGCGAGCCTCCTGGCTCGCGTCATCCGGCCTCACACTC` has a median fluorescence of 6530 a.u.

Series 2
Target: Non-receptor tyrosine-protein kinase TYK2 (TYK2, Homo sapiens, UniProt P29597)
UniProt P29597, sequence (whole entry, looked up): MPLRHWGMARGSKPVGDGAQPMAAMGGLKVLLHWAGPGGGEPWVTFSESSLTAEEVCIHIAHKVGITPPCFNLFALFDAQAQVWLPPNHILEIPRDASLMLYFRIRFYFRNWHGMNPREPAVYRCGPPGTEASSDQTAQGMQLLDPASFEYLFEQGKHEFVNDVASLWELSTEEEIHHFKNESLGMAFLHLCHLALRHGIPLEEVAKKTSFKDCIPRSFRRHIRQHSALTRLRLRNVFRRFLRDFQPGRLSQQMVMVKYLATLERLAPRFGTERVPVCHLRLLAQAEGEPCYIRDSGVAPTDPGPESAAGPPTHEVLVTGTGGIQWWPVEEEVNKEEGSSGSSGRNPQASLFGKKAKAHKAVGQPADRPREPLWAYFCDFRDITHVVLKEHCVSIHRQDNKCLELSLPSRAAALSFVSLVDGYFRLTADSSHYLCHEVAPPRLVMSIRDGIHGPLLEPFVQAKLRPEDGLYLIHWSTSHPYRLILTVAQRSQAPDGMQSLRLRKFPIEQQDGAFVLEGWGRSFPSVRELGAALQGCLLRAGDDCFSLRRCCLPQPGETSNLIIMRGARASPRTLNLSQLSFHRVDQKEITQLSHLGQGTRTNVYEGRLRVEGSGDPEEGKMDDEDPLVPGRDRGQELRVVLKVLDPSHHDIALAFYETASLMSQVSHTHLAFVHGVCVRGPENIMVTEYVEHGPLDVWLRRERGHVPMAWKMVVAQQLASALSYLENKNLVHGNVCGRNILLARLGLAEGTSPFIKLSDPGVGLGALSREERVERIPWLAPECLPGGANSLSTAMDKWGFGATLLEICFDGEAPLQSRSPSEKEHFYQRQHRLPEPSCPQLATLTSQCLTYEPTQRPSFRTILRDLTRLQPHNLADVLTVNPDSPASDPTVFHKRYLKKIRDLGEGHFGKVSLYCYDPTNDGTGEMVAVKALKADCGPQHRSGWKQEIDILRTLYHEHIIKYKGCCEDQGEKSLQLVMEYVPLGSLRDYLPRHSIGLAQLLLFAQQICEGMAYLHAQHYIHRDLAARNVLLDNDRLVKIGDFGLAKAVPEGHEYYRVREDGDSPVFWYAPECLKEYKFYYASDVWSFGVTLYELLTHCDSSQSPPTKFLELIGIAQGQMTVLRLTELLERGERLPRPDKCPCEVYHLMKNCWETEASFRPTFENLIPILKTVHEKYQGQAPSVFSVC
Effect on: enzyme activity
Action: inhibitor
Concentration: 0.5 µM
Reference: control
With `O=c1cc(N2CCOCC2)oc2c(-c3ccccc3)cccc12` the remaining activity was 103%.
The remaining activity of `CN(C)S(=O)(=O)c1ccc2c(c1)/C(=C/c1cc3c([nH]1)CCCC3)C(=O)N2` is reported as 11.4%.
`COc1ccc(COc2ccc(Cc3cnc(N)nc3N)cc2OC)cc1` has a remaining activity of 97.6%.
`Cc1ccc(S(=O)(=O)/C=C/C#N)cc1` gave a remaining activity of 82.8%.
With `CCCCc1c(-c2ccc(OC)cc2)[nH]c2nccnc12` the remaining activity was 38.8%.
`Cc1cc(Nc2cc(N3CCN(C)CC3)nc(Sc3ccc(NC(=O)C4CC4)cc3)n2)[nH]n1` gave a remaining activity of 67.7%.
For `c1ccc(-c2n[nH]c3c2oc2ccccc23)cc1`, the remaining activity was 89.2%.
`O=C(c1cc2cc(O)ccc2[nH]1)c1cc2cc(O)ccc2[nH]1` has a remaining activity of 66.7%.

Series 3
Structure (SMILES): N#CC1(c2ccccn2)CCN(Cc2cc(C(=O)N3CCCC3)c(=O)n3ccccc23)CC1
Concentration: 1 µM
Myotonin-protein kinase (DMPK, Homo sapiens, UniProt Q09013); cell-free assay, competition with immobilised ligand — remaining binding: 90%.
It gave 90% for remaining binding (Mitogen-activated protein kinase kinase kinase 4 (MAP3K4, Homo sapiens, UniProt Q9Y6R4); cell-free assay, competition with immobilised ligand).
For Aurora kinase B (AURKB, Homo sapiens, UniProt Q96GD4); cell-free assay, competition with immobilised ligand: remaining binding read 92%.
It gave 74% for remaining binding (Bone morphogenetic protein receptor type-1A (BMPR1A, Homo sapiens, UniProt P36894); cell-free assay, competition with immobilised ligand).
Cyclin-dependent kinase 19 (CDK19, Homo sapiens, UniProt Q9BWU1); competition binding — remaining binding: 75%.

Other studies, line by line
`CC(C)S(=O)(=O)c1ccc2nccc(Nc3ccc4sc(C5CCCC5)nc4c3)c2c1.Cl` gave a caspase-3 activity of 0.046 a.u. and 0.018 a.u. and 0.034 a.u. and 0.038 a.u. and 0.013 a.u. (L929; caspase activity, Ac-DEVD-pNA absorbance; 50 µM, 2 h; higher = more activity).
